# Measured values pooled from the literature.
# Compare with care: the assays were run in different laboratories. ± marks the error that the study gave.
# Cell line: HepG2
SMILES,assay,conditions,how to read,quantity,result
CC[C@@](C)(NC(=O)[C@@H]1CCCN1C(=O)C(C)(C)NC(=O)[C@@H](NC(=O)[C@H](C)NC(=O)[C@@H]1CCCN1C(=O)C(C)(C)NC(=O)[C@H](CC(C)C)NC(=O)[C@H](CCC(N)=O)NC(=O)C(C)(C)NC(C)=O)C(C)C)C(=O)N[C@@H](CC(C)C)C(=O)NC(C)(C)C(=O)N1CCC[C@H]1C(=O)N[C@H](CO)CC(C)C,"cytotoxicity, MTS",48 h,,EC50,> 25 µM
CC[C@@]1(O)C(=O)OCc2c1cc1n(c2=O)Cc2cc3ccccc3nc2-1,"cell growth or viability, MTT",48 h,,IC50,0.07 µM
CC1=CC(=O)c2c(O)cccc2C1=O,"cell growth or viability, MTT",,,IC50,5.74 µM
CN(C)c1ccc(C(=C2C=CC(=[N+](C)C)C=C2)c2ccccc2)cc1,"cell growth or viability, LDH",,,IC50,63 µM
CC[C@H](C)[C@H](NC(=O)C(C)(C)NC(=O)[C@H](CCC(N)=O)NC(=O)[C@H](C)NC(=O)C(C)(C)NC(=O)[C@H](C)NC(=O)C(C)(C)NC(=O)[C@H](C)NC(=O)C(C)(C)NC(C)=O)C(=O)NC(C)(C)C(=O)NCC(=O)N[C@@H](CC(C)C)C(=O)NC(C)(C)C(=O)N1CCC[C@H]1C(=O)N[C@H](C(=O)NC(C)(C)C(=O)N[C@](C)(CC)C(=O)N[C@@H](CCC(N)=O)C(=O)N[C@@H](CCC(N)=O)C(=O)N[C@H](CO)Cc1ccccc1)C(C)C,"cytotoxicity, MTS",48 h,,EC50,3.35 ± 0.25 µM
CC(N)Cc1c[nH]c2ccc(OCc3cccs3)cc12 (stereo not drawn),"phospholipidosis induction, inducer, high-content imaging","24 h, confirmation screen",,EC50,20 ± 4.8 µM
O=c1c(O)c(-c2ccc(O)cc2)oc2cc(O)cc(O)c12,Seahorse respirometry,"concentration not given, 1 h, dosed at MMP IC50, with: 1 µM FCCP",reference: basal,OCR,226.3 ± 1.29%
c1ccc2c(-c3cnn4cc(-c5ccc(N6CCNCC6)cc5)cnc34)ccnc2c1,"hepcidin mRNA expression, inhibitor, quantitative RT-PCR, refers to: hepcidin mRNA","90 min, with: IL-6 100 ng/mL",,IC50,~0.005 µM
CC(C)[C@H]1c2ccc(F)cc2CC[C@@]1(CCN(C)CCCc1nc2ccccc2[nH]1)OC(=O)C1CC1,"phospholipidosis induction, inducer, high-content imaging","24 h, confirmation screen",,EC50,7.1 µM
CC[C@H](C)[C@H](NC(=O)[C@H](CO)NC(=O)[C@@H]1CCCN1C(=O)C(C)(C)NC(=O)[C@H](CC(C)C)NC(=O)[C@H](CC(N)=O)NC(=O)C(C)(C)NC(C)=O)C(=O)NC(C)(C)C(=O)N1CCC[C@H]1C(=O)N[C@](C)(CC)C(=O)N[C@@H](CC(C)C)C(=O)NC(C)(C)C(=O)N1CCC[C@H]1C(=O)N[C@H](CO)CC(C)C,"cytotoxicity, MTS",48 h,,EC50,> 25 µM
N.N.[Cl][Pt][Cl],"cell growth or viability, CCK-8",,,IC50,18.9 µM
Cc1cc2nc3c(=O)[nH]c(=O)nc-3n(C[C@H](O)[C@H](O)[C@H](O)CO)c2cc1C,Seahorse respirometry,"concentration not given, 1 h, dosed at MMP IC50, with: 1 µM FCCP",reference: basal,OCR,190.2 ± 1.86%
COc1ccc2c(c1)c(CCN1CCOCC1)c(C)n2C(=O)c1cccc(Cl)c1Cl,"phospholipidosis induction, inducer, high-content imaging","24 h, confirmation screen",,EC50,13 ± 6.9 µM
Cc1cc(O)c(C(C)(C)C)cc1Sc1cc(C(C)(C)C)c(O)cc1C,,"MMP IC50, 1 h, with: FCCP 1 µM",reference: basal OCR,maximal OCR,167 ± 1.47%
CN1CCN(C2Cc3ccccc3Sc3ccc(Cl)cc32)CC1 (stereo not drawn),"phospholipidosis induction, inducer, high-content imaging","24 h, confirmation screen",,EC50,6.9 ± 0.5 µM

# Excerpt of the above:
SMILES,assay,conditions,how to read,quantity,result
CC[C@@]1(O)C(=O)OCc2c1cc1n(c2=O)Cc2cc3ccccc3nc2-1,"cell growth or viability, MTT",48 h,,IC50,0.07 µM
N.N.[Cl][Pt][Cl],"cell growth or viability, CCK-8",,,IC50,18.9 µM
